Assay results of several laboratories.
Every numbered part comes from another study and shows a few of its results, in no order. Positions count from the first letter of the parent shown.

Study 1
Target: Histone acetyltransferase KAT6A, winged helix 1, GST fusion (KAT6A, Homo sapiens, UniProt Q92794, residues 1-85)
Technique: protein binding microarray
Molecule type: double-stranded DNA, one strand shown
Sample: in vitro
Tested at: not given
Notes: 8-mer, flanks averaged, mean of 2 arrays, mostly near background
Reference: not given
Direction: higher = stronger binding
Residues (chain): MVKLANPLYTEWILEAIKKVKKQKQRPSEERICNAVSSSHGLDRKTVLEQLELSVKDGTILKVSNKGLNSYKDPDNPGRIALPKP
Oligonucleotide | E-score
ATTGATAG | -0.136
TCCTGAGA | -0.0941
AATGTTAT | -0.234
AGCACCCT | -0.248
ATTGCCTA | -0.192
ATTCCACG | 0.0658
CGACTCAA | -0.197
TATGCTGA | -0.163

Study 2
Target: CCNB2, cyclin fold, Cln2 fusion (human)
Technique: yeast growth competition, sequencing
Sample: yeast
Notes: weak parent motif
Reference: not given
Direction: higher = stronger binding
Starting sequence: RBL1 docking peptide (human); GSAKRRLFGEDPP
Substitution | normalised enrichment score
L7F | 0.111
R5C | -0.322
R5Q | -0.395
P13T | 0.0355
D11P | 0.0702

Study 3
Target: ABI1, truncated, D143A, DHFR fusion (Arabidopsis thaliana)
Technique: DHFR PCA, deep sequencing
Sample: yeast
Notes: methotrexate growth selection, single substitutions
Added: (+)-ABA 0.39 µM
Reference: wild-type fitted maximum
Direction: higher = stronger binding
Starting sequence: PYL1, truncated, DHFR fusion (Arabidopsis thaliana); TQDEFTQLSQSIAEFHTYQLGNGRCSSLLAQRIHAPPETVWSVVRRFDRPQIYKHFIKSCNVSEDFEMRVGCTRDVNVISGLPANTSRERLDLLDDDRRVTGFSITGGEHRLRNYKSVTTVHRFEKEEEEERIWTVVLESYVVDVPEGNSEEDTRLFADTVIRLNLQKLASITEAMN
Substitution | relative binding score [%]
H34V | 9.86
S59G | 9.9
A84T | 23.5
K126Q | 63.7

Other studies, line by line
Molecule | target | assay | test system | conditions | how to read | endpoint | value
PhoQ, residues 284 288 289 292 302 303 AGGCYF | PhoP, residues 12 14 15 18 19 LHSVW (Escherichia coli, UniProt P23836) | Sort-seq, measured: YFP reporter | E. coli | PhoQ-PhoP variant library, added: 10 µM Mg2+ | reference: high Mg2+ state, higher = stronger signaling | fold induction | 19.5

Repeated from above (study 2):
Substitution | normalised enrichment score
R5Q | -0.395
R5C | -0.322
